Measured values of several laboratories.
A part holds a random share of what one study measured. “And” joins repeats or separate records; there may be more than shown.
Sequence of UniProt Q8IYT8 (whole entry, looked up): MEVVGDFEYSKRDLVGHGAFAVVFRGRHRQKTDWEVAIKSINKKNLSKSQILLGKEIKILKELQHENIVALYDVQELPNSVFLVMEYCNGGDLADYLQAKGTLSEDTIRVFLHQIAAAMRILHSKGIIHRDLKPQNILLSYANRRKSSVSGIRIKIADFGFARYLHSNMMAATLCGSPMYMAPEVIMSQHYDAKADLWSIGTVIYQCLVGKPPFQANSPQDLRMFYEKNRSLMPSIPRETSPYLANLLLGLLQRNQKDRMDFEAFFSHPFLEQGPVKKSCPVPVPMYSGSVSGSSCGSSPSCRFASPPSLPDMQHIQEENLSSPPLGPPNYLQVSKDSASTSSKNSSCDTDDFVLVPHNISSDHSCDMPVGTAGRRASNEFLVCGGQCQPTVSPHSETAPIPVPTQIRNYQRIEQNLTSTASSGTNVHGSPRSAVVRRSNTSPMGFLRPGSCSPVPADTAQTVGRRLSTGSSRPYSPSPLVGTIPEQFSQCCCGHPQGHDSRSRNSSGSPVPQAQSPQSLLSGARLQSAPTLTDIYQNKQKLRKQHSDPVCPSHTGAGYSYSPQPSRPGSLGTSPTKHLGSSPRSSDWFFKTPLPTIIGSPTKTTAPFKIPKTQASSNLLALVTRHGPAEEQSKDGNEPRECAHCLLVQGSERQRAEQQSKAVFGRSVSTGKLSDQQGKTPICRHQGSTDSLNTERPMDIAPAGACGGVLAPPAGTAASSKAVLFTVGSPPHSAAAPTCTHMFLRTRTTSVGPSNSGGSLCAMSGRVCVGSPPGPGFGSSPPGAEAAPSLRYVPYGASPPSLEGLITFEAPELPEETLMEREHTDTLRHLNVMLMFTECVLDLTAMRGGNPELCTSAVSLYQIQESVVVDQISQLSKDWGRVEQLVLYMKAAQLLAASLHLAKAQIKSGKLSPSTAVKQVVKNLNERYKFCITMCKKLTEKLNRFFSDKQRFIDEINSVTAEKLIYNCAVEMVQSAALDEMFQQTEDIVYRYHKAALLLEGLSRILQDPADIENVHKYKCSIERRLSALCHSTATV
Sequence of UniProt P49841 (whole entry, looked up): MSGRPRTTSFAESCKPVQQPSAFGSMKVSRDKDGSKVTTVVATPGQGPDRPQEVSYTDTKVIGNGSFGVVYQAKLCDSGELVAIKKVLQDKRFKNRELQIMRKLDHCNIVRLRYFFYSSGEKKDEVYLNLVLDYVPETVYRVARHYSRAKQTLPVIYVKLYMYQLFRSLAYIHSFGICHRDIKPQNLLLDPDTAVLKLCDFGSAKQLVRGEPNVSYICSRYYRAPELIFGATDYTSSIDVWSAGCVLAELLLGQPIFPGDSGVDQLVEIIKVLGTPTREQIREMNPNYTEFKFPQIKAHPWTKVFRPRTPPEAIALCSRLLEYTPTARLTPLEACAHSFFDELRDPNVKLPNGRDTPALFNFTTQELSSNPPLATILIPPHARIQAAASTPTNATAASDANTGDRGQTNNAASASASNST
Sequence of UniProt Q99558 (whole entry, looked up): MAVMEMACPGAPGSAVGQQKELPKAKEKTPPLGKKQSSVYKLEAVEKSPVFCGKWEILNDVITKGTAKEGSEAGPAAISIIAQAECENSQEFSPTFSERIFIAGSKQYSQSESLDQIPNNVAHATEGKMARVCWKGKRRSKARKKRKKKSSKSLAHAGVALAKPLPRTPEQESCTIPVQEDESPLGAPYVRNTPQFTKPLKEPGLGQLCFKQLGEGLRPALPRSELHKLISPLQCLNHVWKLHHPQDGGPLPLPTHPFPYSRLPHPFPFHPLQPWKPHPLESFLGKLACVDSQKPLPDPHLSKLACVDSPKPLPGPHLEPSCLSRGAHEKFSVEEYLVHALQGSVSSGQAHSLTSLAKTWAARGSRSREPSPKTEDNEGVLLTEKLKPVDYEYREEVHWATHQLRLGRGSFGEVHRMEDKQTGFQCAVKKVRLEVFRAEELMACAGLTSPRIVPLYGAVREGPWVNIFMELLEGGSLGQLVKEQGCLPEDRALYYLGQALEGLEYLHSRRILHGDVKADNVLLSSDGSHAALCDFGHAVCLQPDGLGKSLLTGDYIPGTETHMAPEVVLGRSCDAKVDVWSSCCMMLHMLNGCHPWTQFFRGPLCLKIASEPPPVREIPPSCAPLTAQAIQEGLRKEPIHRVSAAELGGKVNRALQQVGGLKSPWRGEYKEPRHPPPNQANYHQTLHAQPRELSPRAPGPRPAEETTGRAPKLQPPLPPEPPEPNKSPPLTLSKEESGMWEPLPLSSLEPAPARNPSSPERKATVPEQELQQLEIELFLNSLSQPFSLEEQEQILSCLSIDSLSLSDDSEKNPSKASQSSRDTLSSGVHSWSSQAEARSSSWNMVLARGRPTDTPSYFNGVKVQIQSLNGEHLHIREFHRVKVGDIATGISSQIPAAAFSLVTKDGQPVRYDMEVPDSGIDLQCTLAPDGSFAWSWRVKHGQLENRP
Sequence of UniProt Q15349 (whole entry, looked up): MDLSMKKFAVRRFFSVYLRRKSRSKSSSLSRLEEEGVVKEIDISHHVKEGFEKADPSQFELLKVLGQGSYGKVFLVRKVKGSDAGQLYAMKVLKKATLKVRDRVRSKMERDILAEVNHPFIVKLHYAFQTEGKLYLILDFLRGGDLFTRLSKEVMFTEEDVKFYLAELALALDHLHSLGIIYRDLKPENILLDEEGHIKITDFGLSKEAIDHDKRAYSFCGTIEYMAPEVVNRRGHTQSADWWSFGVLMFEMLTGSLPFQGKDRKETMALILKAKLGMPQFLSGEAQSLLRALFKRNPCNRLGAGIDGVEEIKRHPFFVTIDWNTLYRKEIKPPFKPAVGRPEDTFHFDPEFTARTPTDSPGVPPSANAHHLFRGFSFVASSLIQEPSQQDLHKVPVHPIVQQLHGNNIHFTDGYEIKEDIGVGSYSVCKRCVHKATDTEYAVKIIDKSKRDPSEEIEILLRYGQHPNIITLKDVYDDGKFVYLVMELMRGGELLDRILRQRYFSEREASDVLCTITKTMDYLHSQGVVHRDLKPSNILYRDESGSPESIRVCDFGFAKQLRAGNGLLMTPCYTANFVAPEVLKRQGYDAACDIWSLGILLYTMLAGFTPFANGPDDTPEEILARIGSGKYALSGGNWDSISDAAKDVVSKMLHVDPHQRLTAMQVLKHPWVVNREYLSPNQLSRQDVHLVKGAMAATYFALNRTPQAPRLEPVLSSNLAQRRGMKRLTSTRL
Sequence of UniProt Q9UHD2 (whole entry, looked up): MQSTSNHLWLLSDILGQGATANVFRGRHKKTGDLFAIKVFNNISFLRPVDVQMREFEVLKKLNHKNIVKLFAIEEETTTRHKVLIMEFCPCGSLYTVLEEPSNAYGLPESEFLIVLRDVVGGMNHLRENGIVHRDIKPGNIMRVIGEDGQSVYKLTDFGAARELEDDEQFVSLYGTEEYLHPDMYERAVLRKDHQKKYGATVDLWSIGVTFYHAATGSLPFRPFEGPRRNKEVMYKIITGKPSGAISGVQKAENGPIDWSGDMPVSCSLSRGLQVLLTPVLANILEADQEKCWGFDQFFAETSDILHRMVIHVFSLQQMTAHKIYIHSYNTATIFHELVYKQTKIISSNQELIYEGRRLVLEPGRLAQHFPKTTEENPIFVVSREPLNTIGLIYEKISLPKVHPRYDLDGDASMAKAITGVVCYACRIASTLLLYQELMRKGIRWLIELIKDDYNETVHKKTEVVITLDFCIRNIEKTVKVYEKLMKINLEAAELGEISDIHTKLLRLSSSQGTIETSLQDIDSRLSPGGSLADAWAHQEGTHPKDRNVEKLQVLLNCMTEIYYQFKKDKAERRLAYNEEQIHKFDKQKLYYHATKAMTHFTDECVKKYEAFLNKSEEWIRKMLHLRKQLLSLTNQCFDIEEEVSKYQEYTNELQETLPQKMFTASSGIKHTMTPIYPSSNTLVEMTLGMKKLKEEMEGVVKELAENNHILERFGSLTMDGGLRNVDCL
Sequence of UniProt P27361 (whole entry, looked up): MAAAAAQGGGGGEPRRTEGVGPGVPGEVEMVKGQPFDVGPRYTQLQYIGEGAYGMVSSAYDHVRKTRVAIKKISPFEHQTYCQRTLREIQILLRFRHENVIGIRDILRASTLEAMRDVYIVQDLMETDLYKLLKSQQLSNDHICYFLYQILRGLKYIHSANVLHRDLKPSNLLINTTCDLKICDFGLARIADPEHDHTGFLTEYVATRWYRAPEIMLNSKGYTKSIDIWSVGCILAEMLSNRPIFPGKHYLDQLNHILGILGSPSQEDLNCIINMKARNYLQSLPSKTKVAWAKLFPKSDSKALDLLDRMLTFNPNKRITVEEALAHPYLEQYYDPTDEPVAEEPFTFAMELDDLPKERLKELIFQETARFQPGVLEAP
Sequence of UniProt P42685 (whole entry, looked up): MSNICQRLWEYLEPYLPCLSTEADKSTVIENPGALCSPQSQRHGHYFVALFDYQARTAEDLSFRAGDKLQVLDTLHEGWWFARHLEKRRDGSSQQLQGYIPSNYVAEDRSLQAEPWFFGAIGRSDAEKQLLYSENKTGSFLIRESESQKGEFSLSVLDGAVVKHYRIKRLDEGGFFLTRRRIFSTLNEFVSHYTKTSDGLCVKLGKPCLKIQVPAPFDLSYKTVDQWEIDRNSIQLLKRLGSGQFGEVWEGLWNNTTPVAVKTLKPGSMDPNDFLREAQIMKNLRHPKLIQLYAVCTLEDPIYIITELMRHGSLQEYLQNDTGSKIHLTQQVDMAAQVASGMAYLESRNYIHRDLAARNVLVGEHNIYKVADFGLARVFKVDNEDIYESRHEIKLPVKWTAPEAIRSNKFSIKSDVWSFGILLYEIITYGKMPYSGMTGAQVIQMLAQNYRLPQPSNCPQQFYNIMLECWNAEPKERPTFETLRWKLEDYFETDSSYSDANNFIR

Series 1 — read-out: cell-free assay; technique: competition with immobilised ligand; tested at: 1 µM; measurement: remaining binding
Structure (SMILES): CS(=O)(=O)NCC[C@H](NC(=O)c1cncc2c1cnn2-c1ccc(F)cc1)c1ccnc(S(C)(=O)=O)c1
ERN1 (Homo sapiens, UniProt O75460): 100%
MKNK2 (Homo sapiens, UniProt Q9HBH9): 100%
FLT3 (Homo sapiens, UniProt P36888, D835V/ITD): 100%
MAP4K2 (Homo sapiens, UniProt Q12851): 91%

Series 2 — read-out: enzyme activity; mode: inhibitor; tested at: 0.5 µM; reference: control; measurement: remaining activity
Structure (SMILES): NC(=O)c1ccc(-c2nc(-c3ccc4c(c3)OCCO4)c(-c3ccccn3)[nH]2)cc1
GRK7 (Homo sapiens, UniProt Q8WTQ7): 105%
TAOK2 (Homo sapiens, UniProt Q9UL54): 101%
MAP3K14 (Homo sapiens, UniProt Q99558): 93.4%
NEK1 (Homo sapiens, UniProt Q96PY6): 98.5%
EPHA3 (Homo sapiens, UniProt P29320): 94.4%
ULK2 (Homo sapiens, UniProt Q8IYT8): 90.9%
WEE1 (Homo sapiens, UniProt P30291): 105%
MERTK (Homo sapiens, UniProt Q12866): 92.7%
CSNK1G3 (Homo sapiens, UniProt Q9Y6M4): 91.8%
TBK1 (Homo sapiens, UniProt Q9UHD2): 90.4%
ACVR1B (Homo sapiens, UniProt P36896): 158%
GSK3B (Homo sapiens, UniProt P49841): 98.9%
MST1R (Homo sapiens, UniProt Q04912): 107%
MAP2K2 (Homo sapiens, UniProt P36507): 106%
ARAF (Homo sapiens, UniProt P10398): 105%
FGFR1 (Homo sapiens, UniProt P11362): 94.5%
MAP3K5 (Homo sapiens, UniProt Q99683): 104%
FGFR3 (Homo sapiens, UniProt P22607): 104%
MAPKAPK2 (Homo sapiens, UniProt P49137): 104%
MAPK3 (Homo sapiens, UniProt P27361): 107%
NEK6 (Homo sapiens, UniProt Q9HC98): 102%
FRK (Homo sapiens, UniProt P42685): 105%
LCK (Homo sapiens, UniProt P06239): 100%
RPS6KA2 (Homo sapiens, UniProt Q15349): 88.5%
CSNK1G2 (Homo sapiens, UniProt P78368): 90.2%

Series 3 — species: human; sample: microsomes or S9; tested at: 2 µM; time: 0.5 h; measurement: remaining compound
Cc1cnc(C)n1CCNS(=O)(=O)c1cccs1: 71.1%
CO/C=C(/C(=O)OC)n1c(COc2c(C)cc(C)cc2C)noc1=O: 64.6%
CCS(=O)(=O)CC(C)N(C)c1cnc(C#N)cn1 (centres unmarked): 83.8%
Cc1nc(NC(C)Cc2ccccc2)c(C#N)c2c1COC(C)(C)C2 (centres unmarked): 2.54%

Series 4 — technique: universal PBM; molecule type: double-stranded DNA, one strand shown; sample: in vitro; tested at: not given; direction: higher = stronger binding; measurement: E-score
Target: Sal-like protein 4, full length isoform B (SALL4, Homo sapiens, UniProt Q9UJQ4-2, residues 1-616)
Notes: 8-mer, flanks averaged, mean of replicates
Target sequence (chain): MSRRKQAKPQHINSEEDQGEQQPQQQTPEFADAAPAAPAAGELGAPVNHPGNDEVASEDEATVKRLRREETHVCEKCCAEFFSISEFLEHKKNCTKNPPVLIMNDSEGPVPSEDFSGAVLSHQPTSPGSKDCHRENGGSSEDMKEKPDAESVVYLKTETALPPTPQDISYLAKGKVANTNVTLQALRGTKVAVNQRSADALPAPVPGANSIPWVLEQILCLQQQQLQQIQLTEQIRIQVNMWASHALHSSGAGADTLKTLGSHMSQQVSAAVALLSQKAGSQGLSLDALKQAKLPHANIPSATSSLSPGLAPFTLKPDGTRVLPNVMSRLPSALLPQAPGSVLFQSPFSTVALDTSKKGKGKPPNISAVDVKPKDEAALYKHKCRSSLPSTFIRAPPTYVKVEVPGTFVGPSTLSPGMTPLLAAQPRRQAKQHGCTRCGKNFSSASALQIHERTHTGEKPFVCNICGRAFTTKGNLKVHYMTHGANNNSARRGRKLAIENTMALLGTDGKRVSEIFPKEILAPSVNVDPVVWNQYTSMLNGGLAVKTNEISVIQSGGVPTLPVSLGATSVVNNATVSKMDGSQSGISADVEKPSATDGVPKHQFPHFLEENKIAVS
GGTGACGA: 0.0237
CACCTTTC: -0.138
TCGGTGAA: -0.0817
ACCAATCC: -0.119
CCTAGGCA: -0.0834
GAAAGTGA: 0.0925
ACTCGAGA: 0.022
AATTTAAA: 0.319

Series 5 — technique: Phase 2a trial; species: idiopathic pulmonary fibrosis patients; measurement: patients with adverse events
SMILES: CC(C)n1cnc(-c2ccc(F)cc2)c1-c1ncc(C(=O)Nc2ccc(N3CCN(C)CC3)cc2)[nH]1
item: vision blurred; 30 mg once daily, grade 5 maximum intensity: 0%
item: muscular weakness; 30 mg once daily, grade 4 maximum intensity: 0%
item: respiratory tract infection; dose not given, grade 3 maximum intensity, all arms: 0%
item: oral herpes; oral, 60 mg once daily, grade 4 maximum intensity: 0%

Series 6 — cell line: mouse MPNST tumor cells; technique: high-content immunofluorescence imaging; item: nuclear SOX9; tested at: 10 µM; time: 12 h; notes: mean of 2 replicates; reference: DMSO control; direction: higher = more nuclear SOX9; measurement: nuclear SOX9 intensity
COc1cc(NS(=O)(=O)c2ccc(N)cc2)nc(OC)n1: 107 % of DMSO
NS(=O)(=O)c1cc(Cl)c(Cl)c(S(N)(=O)=O)c1: 95.1 % of DMSO and 104 % of DMSO
COc1ccc([C@@H]2CC(=O)c3c(O)cc(O[C@@H]4O[C@H](CO[C@@H]5O[C@@H](C)[C@H](O)[C@@H](O)[C@H]5O)[C@@H](O)[C@H](O)[C@H]4O)cc3O2)cc1O: 101 % of DMSO

Series 7 — technique: protein-binding microarray; molecule type: double-stranded DNA, one strand shown; sample: in vitro; tested at: 940 nM top; notes: 60-bp whole probe; together with: salmon DNA 0.4 mg/ml; reference: random background probes; direction: higher = stronger binding; measurement: fitted relative affinity; all sequences stand within: GCCTAGCAC … GTCTTGATTCGCTTGACGCTGCTG
Target: Interferon regulatory factor 5, full length, phosphomimetic (IRF5, Homo sapiens, UniProt Q13568-2, residues 1-514, S451D/S453D/S456D/S462D)
GACGAACTGGGTATCGGGACGTGCTAG: 0.842 z-score
AGAGCCTGGGGATGCAGAGAGTGCTAG: -0.345 z-score
TCCATTTTCTGAATGCCTTGGTGCTAG: 0.688 z-score
TTAGGTTTCGGATATCGGTTAGTGCTA: 9.03 z-score
TTAGGTAACGACTTTCGGTTAGTGCTA: 3.18 z-score
TTAGAACTGCGGTTTCGATTAGTGCTA: 5.36 z-score
GACGGACTGGGGTATCGGGGCGTGCTA: 0.57 z-score
GACGCTTTCGGTTCCGGGACGTGCTAG: 6.35 z-score
